Measurements collected from several papers.
A part holds a random share of what one study measured.

Set 1
Target: RNA binding protein fox-1 homolog 2, RRM domain, GST-SBP tag (RBFOX2, Homo sapiens, UniProt O43251-10, residues 100-194)
Technique: RNA Bind-n-Seq
Form: RNA
Sample: in vitro
Concentration: 365 nM
Setting: natural RNA segment, single round, ends assumed
Reference: no-protein control
Direction: higher = stronger binding
Shared flanks, not repeated: GGGAGUUCUACAGUCCGACGAUC … UGGAAUUCUCGGGUGCCAA
Construct (chain): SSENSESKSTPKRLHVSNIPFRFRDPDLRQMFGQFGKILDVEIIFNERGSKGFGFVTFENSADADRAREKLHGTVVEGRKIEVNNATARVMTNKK
Oligonucleotide	RBNS enrichment (R)
CCCAUCUGUGGGCCUCAUUCUGCCAAAGCUGGACCAAGGCUAACCUUUCUAAGCUCCCUAACUUGGGCCAGAAACCAAAGCUGAGCUUUUAACUUUCUCCCUCUAUGACA	0.364
UUUUCCUGCAUUGUAAUAUUAUGAGGCCUGAGUCGCAGUUGAGUUUGAAAUUUGUAUUUAAUUUCACAGUGACCUAGAGCUAAGGUGCUCCCGGUUGUGGCAAUAGGAGC	0.437
UAAUGUGUAAUUAAAGUGAGGAGAAAUUAAAUACUCUGAGGGCGUUUUAUAUAAUAAAUUCGUGAAGAAUGUGUGCUCUUCAGUUCUCAAGUUUUAUUAUUAUGGUAUUU	2.34
CAUCCUGGAGUGCCUCAGUGACUGAGCAUCCUGAGGGCAAUGGCUGGGUCUCCUCAACUCUGCCCCAGCUUCUCGCAGCACAGGGCCAGGCACCAAGUGCGUAGGCGACG	0.346
CAUAUAUUUUACUGUCAGUUGUCUCAACUCUUGAAUCCAUGUGGCGUUUUCUCUGUCCUGCUGCUUCUUUUGGCCUCCUCGUUUUCCUUCUCUUUUUCGACAAUGGUAGA	0.275
GAAACUUGCUGUGUCCAGUGCUGCUUGAAGUGCUAAUAAUGUUAAAGACACUUAAGAAGAUGAAAUAAUAUUCAAAUUUCAUUUUUUCCUUUUUCCAUUUAUCUGUGGAA	0.542
ACUCUGAGGAUUAUGUGAACAGGACAUUUUUCAUUUGUGAAUUUAAUGCUAUACUGUCAAGGUACUUGCUUGUGUCUGAACUCUAGUGCACUUAUGAUUUUGUAGACCAU	0.451
UCGUUCAUCUGACCACGGGAUGUGUUUCUGAAGAAAAUCUGGAUGCCUGGUGUGUUAGGAACUGAACCUGGGACCCAAAGUGACUGAGGUGGGGGAAGGGAAAAGAAGGA	1.11

Set 2
Target: Prothrombin, mature alpha-thrombin (F2, Homo sapiens, UniProt P00734)
Technique: aptamer microarray, sandwich
Form: DNA with 2'F-ANA
Sample: in vitro
Concentration: 200 nM
Setting: whole 15-mer aptamer, many near background
Added: Cy3 exosite-II aptamer, 400 nM
Direction: higher = stronger binding
Oligonucleotide: GGTTGGTGTGGTTGG
Modification	mean fluorescence intensity [a.u.]
2'F-ANA at 5 6 8 12 13 15	111
2'F-ANA at 9 10 12 13	199
2'F-ANA at 1 5 6 8 10 13 14	47.3
2'F-ANA at 2 4 7 10 11 13 14	63.2
2'F-ANA at 1 2 4 5 6 7 8 9 10 11 13 14 15	55.8
2'F-ANA at 1 3 4 7 12 14 15	114
2'F-ANA at 2 4 5 7 9 10 12 14	49.5
2'F-ANA at 2 3 4 5 8 9 12	324
2'F-ANA at 1 4 7 8 12 14	64.2
2'F-ANA at 2 3 5 9 11 12 13 14	73.4
2'F-ANA at 1 6 7 10 11 13	50.1
2'F-ANA at 1 7 14 15	59.4
2'F-ANA at 3 5 10 11 12 14 15	53.4
2'F-ANA at 1 2 5 6 8 9 11 14 15	57.2
2'F-ANA at 2 3 4 5 7 8 10 11 13 15	52.4
2'F-ANA at 1 2 7 8 9	194
2'F-ANA at 2 3 4 8 12 13	763
2'F-ANA at 1 2 3 5 7 9 10 15	45.9

Set 3
Target: Interferon regulatory factor 7, full length, phosphomimetic (IRF7, Homo sapiens, UniProt Q92985, residues 1-503, S471D/S472D/S475D/S476D/S477D/S483D/S484D/S487D)
Technique: protein-binding microarray
Form: double-stranded DNA, one strand shown
Sample: in vitro
Concentration: 2200 nM top
Setting: 60-bp whole probe
Added: salmon DNA 0.4 mg/ml
Reference: random background probes
Direction: higher = stronger binding
Shared flanks, not repeated: GCCTAGCAC … GTCTTGATTCGCTTGACGCTGCTG
Construct (chain): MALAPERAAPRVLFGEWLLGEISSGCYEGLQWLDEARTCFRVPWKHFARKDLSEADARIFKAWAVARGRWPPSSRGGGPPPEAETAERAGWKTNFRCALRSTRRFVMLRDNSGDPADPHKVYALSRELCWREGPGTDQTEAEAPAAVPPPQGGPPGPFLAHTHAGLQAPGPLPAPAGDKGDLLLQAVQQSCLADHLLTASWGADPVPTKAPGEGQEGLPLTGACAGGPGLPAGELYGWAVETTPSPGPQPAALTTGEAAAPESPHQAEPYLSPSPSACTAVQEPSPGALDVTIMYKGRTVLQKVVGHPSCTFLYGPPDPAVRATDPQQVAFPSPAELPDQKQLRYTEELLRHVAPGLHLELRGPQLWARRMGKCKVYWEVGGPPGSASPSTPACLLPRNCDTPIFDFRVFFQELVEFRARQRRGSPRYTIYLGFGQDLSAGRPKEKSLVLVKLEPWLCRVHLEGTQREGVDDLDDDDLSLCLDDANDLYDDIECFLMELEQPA
Oligonucleotide	fitted relative affinity
TTAGAACAGAGTTTCGATTAGTGCTAG	2.95 z-score
CACGGTTTCGGTTCCGGGACGTGCTAG	11.8 z-score
TTAGGTATCTTTTTCCTTTAGTGCTAG	1.38 z-score
TTAGGTATCCTACAGCTTTAGTGCTAG	0.263 z-score
GACGGTTGCGACACTGGGGACGTGCTA	-0.399 z-score
TCACTTTGCCTTTTGCTACTGTGCTAG	3.86 z-score
GACGATATAGGGACTGGAGACGTGCTA	-0.576 z-score
GACAGTATCGGGTATCGGGACGTGCTA	0.383 z-score
TTAGATATCAGTCTCGATAAGTGCTAG	0.129 z-score
GACGGACTGGGGTTTCGGGAAGTGCTA	-0.153 z-score
GACGGACTGCATTTCCTGACGTGCTAG	0.512 z-score
GACGGACTGGGACTCGGGACGTGCTAG	-0.672 z-score
TTAGATACCGGGTATCGATTAGTGCTA	0.515 z-score
GACGGTTTCGGGAATCGGGACGTGCTA	2.9 z-score
TTAGATATCAGTATCGAATAGTGCTAG	-0.12 z-score
TTAGGTTTCGAACTGGGTTAGTGCTAG	2.52 z-score
TCAACTCTCTGGGCTGTGACTGTGCTA	0.416 z-score
GACGGTATCGACGTTCGGGACGTGCTA	-0.185 z-score
TTAGGACTGGACACTTGGTTAGTGCTA	-0.653 z-score

Set 4
Target: Histone acetyltransferase KAT6A, both winged helices, GST fusion (KAT6A, Homo sapiens, UniProt Q92794, residues 1-181)
Technique: protein binding microarray
Form: double-stranded DNA, one strand shown
Sample: in vitro
Concentration: not given
Setting: 8-mer, flanks averaged, mean of 2 arrays, mostly near background
Reference: not given
Direction: higher = stronger binding
Residues (chain): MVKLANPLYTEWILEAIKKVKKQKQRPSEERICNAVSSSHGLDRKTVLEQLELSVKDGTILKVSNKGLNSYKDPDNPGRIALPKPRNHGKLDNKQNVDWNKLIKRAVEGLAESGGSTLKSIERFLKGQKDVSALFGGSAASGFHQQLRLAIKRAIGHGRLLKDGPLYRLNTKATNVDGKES
Oligonucleotide	E-score
AATTACAC	0.00513
GCTAGCAA	0.00072
CAAAGGAA	-0.0715
CCCCAAGC	-0.0759
ATTCAACC	-0.0668
CAGCGTGA	-0.00679
AACGACTG	-0.114
ACAGCTCC	-0.146
CAAAAGAC	0.00485
ATCAAGCA	-0.114
CTCAACGA	-0.0534
CCCGCTCC	0.237
TAGATTAA	-0.0266
CCTCGGAA	0.115
CTTGGTCC	-0.044
TGATCAAA	-0.0108
AAACTCGA	-0.196
CCCGCAAC	0.202
CTTATAAA	-0.0567
GAACAGGC	0.0094
AAGGCGTA	-0.136
CGCCAGAA	-0.0692
CAGCAAGA	-0.196
ACCCGGTC	0.209
AGCATCGG	0.112

Repeated from above (set 3):
Oligonucleotide	fitted relative affinity
TTAGAACAGAGTTTCGATTAGTGCTAG	2.95 z-score
TTAGATATCAGTATCGAATAGTGCTAG	-0.12 z-score
TTAGGTATCTTTTTCCTTTAGTGCTAG	1.38 z-score
GACGGACTGCATTTCCTGACGTGCTAG	0.512 z-score
GACAGTATCGGGTATCGGGACGTGCTA	0.383 z-score
